Published values gathered from unrelated publications.
Every numbered part comes from another study and shows a few of its results, in no order.

Series 1 — technique: competition protein-binding microarray; molecule type: double-stranded DNA, one strand shown; sample: in vitro; concentration: 2 µM; with: Cbf1 competitor, 0.05 µM; reading: higher = stronger binding
Target: Phosphate system positive regulatory protein PHO4, full length, GST-tagged (PHO4, Saccharomyces cerevisiae, UniProt P07270, residues 1-312)
Notes: whole 60-bp probe, lowest competitor level
Construct (chain): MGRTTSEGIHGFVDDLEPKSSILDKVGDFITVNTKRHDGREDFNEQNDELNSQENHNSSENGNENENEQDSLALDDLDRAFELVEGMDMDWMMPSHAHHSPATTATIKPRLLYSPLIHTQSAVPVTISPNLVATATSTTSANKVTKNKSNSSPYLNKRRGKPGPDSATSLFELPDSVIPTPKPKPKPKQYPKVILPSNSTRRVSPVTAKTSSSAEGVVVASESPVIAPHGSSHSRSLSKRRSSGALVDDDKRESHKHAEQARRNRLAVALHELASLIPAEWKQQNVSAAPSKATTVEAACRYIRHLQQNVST
`TGGTTGAGTTTTACCCACGATACCGATATTCTGAACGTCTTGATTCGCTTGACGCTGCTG` has a fluorescence intensity of 8090 a.u.
The fluorescence intensity of `CATACCCAACCTTTTCACGTGCTGTAAGATATTTGTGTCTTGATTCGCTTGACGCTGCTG` is reported as 14200 a.u.
`CTTTCCCGATCTTGTCACGACACTTTAGCACATTTGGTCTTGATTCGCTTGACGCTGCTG` has a fluorescence intensity of 5840 a.u.
With `TATACTAGGTAGTTACACGTGAAATTATTGAATCAAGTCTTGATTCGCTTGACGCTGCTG` the fluorescence intensity was 13500 a.u.
For `TATTACGCCTGCAACCCCGTGCTAAGCTAGAATGTCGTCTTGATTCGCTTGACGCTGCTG`, the fluorescence intensity was 9750 a.u.
For `TGCGCAACAACTTGACAAGTGGGTGTATGTCTAGAAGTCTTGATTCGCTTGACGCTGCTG`, the fluorescence intensity was 5240 a.u.
`CTTCTGTAAATTTGTCACAACACTTGACGCGCCCCGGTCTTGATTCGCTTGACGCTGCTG` gave a fluorescence intensity of 3410 a.u.
For `CTAACGAAGGTTTGCGCAGTGGGTGACAAGCCAAGTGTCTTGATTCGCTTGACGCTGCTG`, the fluorescence intensity was 3940 a.u.
For `TGCGCAACAACTTGAGCTGTGGGTGTATGTCTAGAAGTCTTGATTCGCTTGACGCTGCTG`, the fluorescence intensity was 4310 a.u.
`CTTGTCCTCAAATGCGGCGTGCAAAGTTCATAGCGGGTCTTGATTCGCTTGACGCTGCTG` gave a fluorescence intensity of 7960 a.u.
For `GAGATACAACACCATCACGTTTAAAAGCCTTGTTGGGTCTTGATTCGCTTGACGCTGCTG`, the fluorescence intensity was 9060 a.u.
The fluorescence intensity of `TGCGCAACAACTTGTCACGCGACTTTATGTCTAGAAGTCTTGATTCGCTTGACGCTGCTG` is reported as 7160 a.u.
The fluorescence intensity of `TGCGCAACAACTTGTCACATGACTTTATGTCTAGAAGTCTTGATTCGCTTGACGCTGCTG` is reported as 5740 a.u.
`GCCAGGGATCCTCACCACGTCGCCGTCCTGTAATCCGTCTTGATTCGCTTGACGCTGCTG` gave a fluorescence intensity of 5380 a.u.
`CTAACGAAGGTTTTTCACGTGATTTACAAGCCAAGTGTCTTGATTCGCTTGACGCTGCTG` has a fluorescence intensity of 10700 a.u.
For `CGGGGTTAAGTTTGTACAGTGGGTGGCTTGCAGCAGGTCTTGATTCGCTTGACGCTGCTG`, the fluorescence intensity was 3980 a.u.
`CAACACAATTCGAGTCACGTGGAACGGCCTTCAAATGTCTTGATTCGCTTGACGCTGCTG` has a fluorescence intensity of 14800 a.u.
For `CTTCTGTAAATTTGTAATGTGGGTGGACGCGCCCCGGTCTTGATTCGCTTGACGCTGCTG`, the fluorescence intensity was 5310 a.u.
For `GGATAGGGTCTTTGGCATGTGCGGTGCTTACCCGGAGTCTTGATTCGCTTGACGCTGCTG`, the fluorescence intensity was 10500 a.u.

Series 2 — technique: protein binding microarray; molecule type: double-stranded DNA, one strand shown; sample: in vitro; concentration: not given; baseline: not given; reading: higher = stronger binding
Target: Histone acetyltransferase KAT6A, winged helix 1, GST fusion (KAT6A, Homo sapiens, UniProt Q92794, residues 1-85)
Notes: 8-mer, flanks averaged, mean of 2 arrays, mostly near background
Target sequence (chain): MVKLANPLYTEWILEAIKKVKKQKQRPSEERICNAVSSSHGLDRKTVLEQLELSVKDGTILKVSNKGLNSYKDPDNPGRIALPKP
The E-score of `CTAACCTC` is reported as -0.128.
The E-score of `CACACCTA` is reported as 0.0745.
With `AATACGGC` the E-score was 0.299.
`AAACGCAG` has an E-score of -0.0474.
With `CCTAGCAA` the E-score was -0.189.
With `ACGAACGC` the E-score was 0.161.
`CAGCGCAC` gave an E-score of 0.176.
For `ACCCGATC`, the E-score was 0.0288.
The E-score of `AACCCGCA` is reported as 0.141.
`AACAGGCG` has an E-score of 0.0809.
`GGACAAAA` gave an E-score of 0.021.
For `CGCAGAGA`, the E-score was 0.0512.
The E-score of `CTAGTATC` is reported as -0.136.
With `CGTGCGTC` the E-score was 0.28.
With `TAGTTAGA` the E-score was -0.0939.
For `AATGTGGC`, the E-score was 0.0365.
For `CCAGGTAC`, the E-score was -0.178.
`ATCGCTAA` has an E-score of -0.0238.
With `CCTCGGAC` the E-score was 0.0995.
For `GAGGCTTA`, the E-score was -0.0397.
`CTGTGACA` gave an E-score of -0.292.
`ACCTCATC` gave an E-score of -0.259.
The E-score of `CGGGAAAA` is reported as 0.223.
With `TAGAGGAA` the E-score was -0.24.
For `AAGGTTTC`, the E-score was -0.0522.

Series 3 — technique: RNA Bind-n-Seq; molecule type: RNA; sample: in vitro; concentration: 365 nM; baseline: no-protein control; reading: higher = stronger binding
Target: RNA binding protein fox-1 homolog 2, RRM domain, GST-SBP tag (RBFOX2, Homo sapiens, UniProt O43251-10, residues 100-194)
Notes: natural RNA segment, single round, ends assumed
Construct (chain): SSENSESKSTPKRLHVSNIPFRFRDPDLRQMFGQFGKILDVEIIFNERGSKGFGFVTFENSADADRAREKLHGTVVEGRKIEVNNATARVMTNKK
For `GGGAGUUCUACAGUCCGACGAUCAGAAAAAAACUGGUCAGCUCUAGCCAACAGUGAGGUUUCUUUUCUUCUGCCCUAACUAUUGUGUAGCCUCUUAUGCUGAAAUCGGCUUCUGCUGGCUUCUCCGGCUUUCAUGGAAUUCUCGGGUGCCAA`, “RBNS enrichment (R)” read 0.331.
For `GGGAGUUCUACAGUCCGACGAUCUGUGAUAAAGAAGGGCCCAUCCUAUUUCCCCUCAUCUAGUCCAUUUACGAUUCUCACUGACUCCCCGUCUUCCUGGCAGACACAAAUAAACCCAGUGUCAGGUCUAGGAAUGGAAUUCUCGGGUGCCAA`, “RBNS enrichment (R)” read 0.374.
`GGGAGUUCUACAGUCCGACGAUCCCCUCGGGCUACCCAGCAAGAGGAUUCUGCAUCAAGGAACUGGACGAGCCGCUACCCAAACUGCCACCAUCUUUACUCUUUACAAAAUGGACCCAUCGAGAAUGUUGAAAUGGAAUUCUCGGGUGCCAA` — result for “RBNS enrichment (R)”: 3.68.
Under “RBNS enrichment (R)”, `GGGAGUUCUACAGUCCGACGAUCGGGAACAUUUAUGAUUUUCUUUCAACAUUAAAACUGAAGUUAGUUUUGCCAUUUUUGAAAGUAUUAGUAAAAUCAUGGAAUACAUCACAGAACAGCUGUCCAUCAGUGAGUGGAAUUCUCGGGUGCCAA` is recorded as 0.554.
For `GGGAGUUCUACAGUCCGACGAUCGAUACCAGCAGGCCCUUAAGCCUUCCAGGACACUAAGGUCGUGGGAGCGGGACUGCAACAAGCAAUGCCAGAUAACUGAGAAAUCAUGUUCUUUGUGGACUAUUUCAGACUGGAAUUCUCGGGUGCCAA`, “RBNS enrichment (R)” read 0.255.
`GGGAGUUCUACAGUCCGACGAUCUCUCAUUAGAGGAAGCUUUCCAAAGUUCUCAGUUAUCAAGACCUCAUCCAGCUCGUCCAAAGGCUUCAGGGAUGGAAACAAACCAGCUCGUCUCAGAGGCCAGCAAGCUGUGGAAUUCUCGGGUGCCAA`: “RBNS enrichment (R)” 0.34.
`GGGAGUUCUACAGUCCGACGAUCUAAAGAAAAAUUGUUCUCUAACCAGGAUUGUAACAAAUGUGUAAAUAGUAUUUCUGAGUUGAAAGUCGAUGGUGCAAAUAUGUAUAUAACGUACUGUAUUUUUACAAUGAUGGAAUUCUCGGGUGCCAA` — result for “RBNS enrichment (R)”: 0.517.
Under “RBNS enrichment (R)”, `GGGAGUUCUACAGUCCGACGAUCGGCUGUGGGGUAUCCACCUCGCCCAAGUCUCCUUUUACUGAAAUAAAAUUUGAGGGGAAGAGAAAAAACUUACACGAGCACCGAAUUUCAAAUAAACGAAAAUGAGACAUUGGAAUUCUCGGGUGCCAA` is recorded as 0.385.

Series 4 — organism: Saccharomyces cerevisiae; observed: binding; technique: competitive growth deep sequencing; molecule type: peptide; strain: cyclin D3-Cln2 fusion strain; concentration: concentration not given; notes: peptide tiling library; reading: direction not given
For `NARRSLNFGGSTGT`, “growth enrichment score” read -0.21.
`TARRIFQEPTEPKTKA`: “growth enrichment score” 1.23.
`PAKRRLELGE`: “growth enrichment score” -0.0826.
For `RKLHFEDEVT`, “growth enrichment score” read -0.412.
For `ESSQLTVQAEFDMSAI`, “growth enrichment score” read 0.733.
Under “growth enrichment score”, `IVLICAKRSLCAAFSV` is recorded as -0.745.
For `LRRQLSFSED`, “growth enrichment score” read -0.367.
`EPRNLLSLFEDTLDPT`: “growth enrichment score” -0.43.
`SSEVARHLLFQSHM`: “growth enrichment score” -1.28.
For `RRVLCFDS`, “growth enrichment score” read -0.566.
`SAVPLILPQAPSGPSY`: “growth enrichment score” 0.586.
`KPITLDTTDFQESFVT`: “growth enrichment score” 0.373.
`PLRKAKRARLCSSSSS` — result for “growth enrichment score”: 0.482.
`SCCKRKLVVGNGPEGP` — result for “growth enrichment score”: -0.993.
`PARRRLRLSVDEVSSP` — result for “growth enrichment score”: -1.11.
For `ALTMEALEDPSPELME`, “growth enrichment score” read 1.59.

For quick reference, copied from above (series 4):
`KPITLDTTDFQESFVT`: “growth enrichment score” 0.373.
`EPRNLLSLFEDTLDPT`: “growth enrichment score” -0.43.
`SSEVARHLLFQSHM`: “growth enrichment score” -1.28.
For `RKLHFEDEVT`, “growth enrichment score” read -0.412.
`PARRRLRLSVDEVSSP` — result for “growth enrichment score”: -1.11.
Under “growth enrichment score”, `IVLICAKRSLCAAFSV` is recorded as -0.745.
For `NARRSLNFGGSTGT`, “growth enrichment score” read -0.21.
